Assay results pooled from the literature.
Protocols differ between the studies behind these lines.
CSNK1A1: Casein kinase I isoform alpha (CSNK1A1, Homo sapiens, UniProt P48729)
Sequence of UniProt P48729 (whole entry, looked up): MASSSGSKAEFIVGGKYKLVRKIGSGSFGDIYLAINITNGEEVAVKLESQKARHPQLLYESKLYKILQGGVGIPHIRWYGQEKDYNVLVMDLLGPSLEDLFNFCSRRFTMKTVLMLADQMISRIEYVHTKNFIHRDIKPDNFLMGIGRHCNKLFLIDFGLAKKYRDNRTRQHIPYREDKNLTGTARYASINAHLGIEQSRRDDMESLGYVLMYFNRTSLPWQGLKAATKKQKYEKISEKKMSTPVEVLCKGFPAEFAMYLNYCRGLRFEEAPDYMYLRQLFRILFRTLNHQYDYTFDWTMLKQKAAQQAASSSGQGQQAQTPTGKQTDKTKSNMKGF
MTNR1A: Melatonin receptor type 1A (MTNR1A, Homo sapiens, UniProt P48039)
Sequence of UniProt P48039 (whole entry, looked up): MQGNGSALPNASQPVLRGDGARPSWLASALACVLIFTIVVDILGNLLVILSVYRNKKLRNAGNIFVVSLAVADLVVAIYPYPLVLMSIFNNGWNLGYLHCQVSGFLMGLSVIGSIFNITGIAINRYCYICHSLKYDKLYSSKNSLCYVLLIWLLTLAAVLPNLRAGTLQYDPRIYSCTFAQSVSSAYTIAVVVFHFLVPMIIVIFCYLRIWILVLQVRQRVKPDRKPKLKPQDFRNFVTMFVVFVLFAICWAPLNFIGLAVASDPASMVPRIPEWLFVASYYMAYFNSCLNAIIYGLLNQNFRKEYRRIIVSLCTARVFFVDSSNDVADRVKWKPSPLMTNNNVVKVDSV
CA9: Carbonic anhydrase 9 (CA9, Homo sapiens, UniProt Q16790)
CSNK1D: Casein kinase I isoform delta (CSNK1D, Homo sapiens, UniProt P48730)
Sequence of UniProt P48730 (whole entry, looked up): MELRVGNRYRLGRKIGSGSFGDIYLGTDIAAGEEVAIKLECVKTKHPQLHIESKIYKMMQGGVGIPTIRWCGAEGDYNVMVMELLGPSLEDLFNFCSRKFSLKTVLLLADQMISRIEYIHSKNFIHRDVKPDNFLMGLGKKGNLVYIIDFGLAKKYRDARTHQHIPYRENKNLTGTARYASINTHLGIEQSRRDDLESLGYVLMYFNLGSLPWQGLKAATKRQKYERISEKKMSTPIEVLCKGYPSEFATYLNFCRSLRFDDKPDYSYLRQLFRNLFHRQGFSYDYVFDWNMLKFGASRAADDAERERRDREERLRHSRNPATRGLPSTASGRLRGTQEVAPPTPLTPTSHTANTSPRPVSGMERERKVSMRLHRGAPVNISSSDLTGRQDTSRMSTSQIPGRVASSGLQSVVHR
Sequence of UniProt P0DMS8 (whole entry, unmodified, looked up): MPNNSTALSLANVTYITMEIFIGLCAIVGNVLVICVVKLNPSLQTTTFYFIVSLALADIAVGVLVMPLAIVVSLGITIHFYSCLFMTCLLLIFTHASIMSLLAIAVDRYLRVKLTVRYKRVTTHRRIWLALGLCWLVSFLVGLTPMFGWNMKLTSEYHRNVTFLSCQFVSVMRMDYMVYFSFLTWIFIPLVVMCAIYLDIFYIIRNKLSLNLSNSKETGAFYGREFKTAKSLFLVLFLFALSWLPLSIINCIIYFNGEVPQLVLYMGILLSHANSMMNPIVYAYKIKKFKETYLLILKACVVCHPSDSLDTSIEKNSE
Sequence of UniProt P35368 (whole entry, looked up): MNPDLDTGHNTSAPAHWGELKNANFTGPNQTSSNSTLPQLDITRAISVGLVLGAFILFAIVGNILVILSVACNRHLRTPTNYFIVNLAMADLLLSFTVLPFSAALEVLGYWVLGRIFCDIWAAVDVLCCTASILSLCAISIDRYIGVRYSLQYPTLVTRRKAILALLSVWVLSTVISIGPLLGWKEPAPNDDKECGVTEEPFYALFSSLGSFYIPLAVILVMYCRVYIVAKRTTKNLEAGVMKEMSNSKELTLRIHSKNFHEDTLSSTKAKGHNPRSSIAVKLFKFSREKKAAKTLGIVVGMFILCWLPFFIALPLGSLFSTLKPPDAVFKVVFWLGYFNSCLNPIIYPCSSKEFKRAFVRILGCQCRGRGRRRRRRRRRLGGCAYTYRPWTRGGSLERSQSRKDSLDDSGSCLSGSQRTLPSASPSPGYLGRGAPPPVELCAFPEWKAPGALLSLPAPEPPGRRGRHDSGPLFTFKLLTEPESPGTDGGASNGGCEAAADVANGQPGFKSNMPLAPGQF
Sequence of UniProt Q47319 (whole entry, unmodified, looked up): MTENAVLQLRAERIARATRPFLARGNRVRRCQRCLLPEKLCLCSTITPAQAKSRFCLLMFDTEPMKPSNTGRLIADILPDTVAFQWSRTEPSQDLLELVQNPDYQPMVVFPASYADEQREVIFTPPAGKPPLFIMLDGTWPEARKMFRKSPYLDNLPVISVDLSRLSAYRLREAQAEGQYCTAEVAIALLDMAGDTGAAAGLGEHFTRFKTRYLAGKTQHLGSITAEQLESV
Sequence of UniProt Q56UN5 (whole entry, looked up): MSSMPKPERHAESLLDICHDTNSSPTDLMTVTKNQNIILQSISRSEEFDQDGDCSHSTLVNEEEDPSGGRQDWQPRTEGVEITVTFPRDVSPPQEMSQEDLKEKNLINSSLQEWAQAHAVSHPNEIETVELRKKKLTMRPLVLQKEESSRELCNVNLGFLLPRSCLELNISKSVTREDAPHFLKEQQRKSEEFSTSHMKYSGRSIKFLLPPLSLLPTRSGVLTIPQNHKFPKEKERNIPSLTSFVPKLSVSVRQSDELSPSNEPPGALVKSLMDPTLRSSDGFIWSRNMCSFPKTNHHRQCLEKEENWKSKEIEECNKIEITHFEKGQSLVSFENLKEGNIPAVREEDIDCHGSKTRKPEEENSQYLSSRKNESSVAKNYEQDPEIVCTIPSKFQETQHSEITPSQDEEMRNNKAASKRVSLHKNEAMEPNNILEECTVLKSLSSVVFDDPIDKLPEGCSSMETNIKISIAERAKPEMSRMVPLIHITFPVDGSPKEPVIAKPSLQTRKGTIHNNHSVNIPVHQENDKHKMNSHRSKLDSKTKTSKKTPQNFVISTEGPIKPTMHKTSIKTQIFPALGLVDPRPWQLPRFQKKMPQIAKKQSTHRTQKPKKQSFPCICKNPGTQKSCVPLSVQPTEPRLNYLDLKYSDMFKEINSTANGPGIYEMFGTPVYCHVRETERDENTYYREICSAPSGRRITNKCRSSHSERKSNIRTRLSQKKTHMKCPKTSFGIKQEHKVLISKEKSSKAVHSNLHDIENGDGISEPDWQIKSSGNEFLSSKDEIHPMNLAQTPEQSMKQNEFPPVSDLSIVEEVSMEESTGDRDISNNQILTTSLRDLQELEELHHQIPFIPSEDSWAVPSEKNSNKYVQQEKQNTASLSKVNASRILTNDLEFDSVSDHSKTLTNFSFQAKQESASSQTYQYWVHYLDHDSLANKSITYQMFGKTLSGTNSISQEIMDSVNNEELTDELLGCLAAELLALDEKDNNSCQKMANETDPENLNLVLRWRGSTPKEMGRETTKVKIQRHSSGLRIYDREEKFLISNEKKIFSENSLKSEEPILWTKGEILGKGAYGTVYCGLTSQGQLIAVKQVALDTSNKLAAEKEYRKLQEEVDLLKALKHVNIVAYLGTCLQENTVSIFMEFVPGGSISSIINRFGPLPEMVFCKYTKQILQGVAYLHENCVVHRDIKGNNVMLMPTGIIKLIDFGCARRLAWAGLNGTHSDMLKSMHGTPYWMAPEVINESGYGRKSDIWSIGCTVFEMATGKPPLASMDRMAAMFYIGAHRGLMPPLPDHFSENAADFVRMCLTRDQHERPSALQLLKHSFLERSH
Sequence of UniProt P09622 (whole entry, unmodified, looked up): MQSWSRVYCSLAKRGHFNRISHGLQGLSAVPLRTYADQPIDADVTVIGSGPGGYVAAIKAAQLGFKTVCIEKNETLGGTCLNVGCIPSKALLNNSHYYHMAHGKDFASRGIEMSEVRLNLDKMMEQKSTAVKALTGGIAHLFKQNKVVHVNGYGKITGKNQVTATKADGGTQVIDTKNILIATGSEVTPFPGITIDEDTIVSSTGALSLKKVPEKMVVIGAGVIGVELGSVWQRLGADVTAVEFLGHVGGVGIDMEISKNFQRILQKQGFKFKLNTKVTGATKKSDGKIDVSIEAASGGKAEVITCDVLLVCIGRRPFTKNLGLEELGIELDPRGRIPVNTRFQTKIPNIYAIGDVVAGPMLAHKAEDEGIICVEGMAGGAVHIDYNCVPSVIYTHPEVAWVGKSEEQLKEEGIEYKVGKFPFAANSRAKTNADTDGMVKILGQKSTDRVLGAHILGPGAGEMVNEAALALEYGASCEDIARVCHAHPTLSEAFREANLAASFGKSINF

| SMILES | target | test | quantity | value |
| --- | --- | --- | --- | --- |
| NC(=O)c1ccc(N)cc1Cl | CSNK1A1 | binding, SPR | Kd | > 50000 nM |
| COC(=O)c1sc(N(C)Cc2cccc(O)c2)nc1Cl | MTNR1A | cAMP, agonist, luciferase | EC50 | 22.1 nM |
| Cc1cnc(-c2ccc(-c3ccc(NC(=O)Nc4c(F)cc(F)cc4F)cc3F)c3c2C(=O)NC3)[nH]1 | Mitogen-activated protein kinase kinase kinase 19 (MAP3K19, Homo sapiens, UniProt Q56UN5) | binding, competition with immobilised ligand | Kd | 3.9 nM |
| CN(C)C(=O)c1ccc(NC(=O)c2cc(S(N)(=O)=O)ccc2N2CCOCC2)cc1 | CA9 | enzyme activity, inhibitor | IC50 | 84 nM |
| CC(C)=CCNc1ncnc2c1ncn2[C@@H]1O[C@H](CO)[C@@H](O)[C@H]1O | Adenosine receptor A3 (ADORA3, Homo sapiens, UniProt P0DMS8, I253N) | G protein activation, agonist | EC50 | 45.1 nM |
| c1ccc(Nc2nc3c(s2)Cc2ccccc2-3)cc1 | CSNK1A1 | binding, SPR | Kd | > 50000 nM |
| CN(C)c1ncnc2c1ncn2[C@@H]1O[C@H](CO)[C@@H](O)[C@H]1O | Adenosine receptor A3 (ADORA3, Homo sapiens, UniProt P0DMS8, I253A) | G protein activation, agonist | EC50 | 17000 nM |
| CC(=O)c1ccc(CSc2nnc(C3CC3)[nH]2)cc1 | MTNR1A | cAMP, agonist, luciferase | EC50 | 51.4 nM |
| Cc1cc2nc3c(=O)[nH]c(=O)nc-3n(C[C@H](O)[C@H](O)[C@H](O)COP(=O)(O)OP(=O)(O)OC[C@H]3O[C@@H](n4cnc5c(N)ncnc54)[C@H](O)[C@@H]3O)c2cc1C | Dihydrolipoyl dehydrogenase, mitochondrial (DLD, Homo sapiens, UniProt P09622, K430R) | binding, SPR | Kd | 1610 nM |
| COC(=O)c1sc(N(C)Cc2ccc3c(c2)OCO3)nc1Cl | MTNR1A | cAMP, agonist, luciferase | EC50 | 9.97 nM |
| CC(=O)Nc1ccc(C(=O)N2CCN(CC(=O)c3cc(C)n(-c4ccc(S(N)(=O)=O)cc4)c3C)CC2)cc1F | CA9 | enzyme activity, inhibitor | IC50 | 51.3 nM |
| COc1ccc(CNc2ccc(C)nc2)cc1 | MTNR1A | cAMP, agonist, luciferase | EC50 | 1240 nM |
| COc1ccc(-c2oc3ncnc(NCCCN4CCOCC4)c3c2-c2ccc(OC)cc2)cc1 | CSNK1D | binding, SPR | Kd | > 50000 nM |
| NS(=O)(=O)c1ccc(NC(=S)N(Cc2cccc(O)c2)CC2CC2)cc1 | CA9 | enzyme activity, inhibitor | IC50 | 20.9 nM |
| COCc1n[nH]c(N)c1-c1ccc(Cl)cc1 | CSNK1A1 | binding, SPR | Kd | > 50000 nM |
| CC(NC(=O)c1ccccc1NC(=O)c1ccco1)c1ccc(S(N)(=O)=O)cc1 (stereo not drawn) | CA9 | enzyme activity, inhibitor | IC50 | 50 nM |
| COc1ccc(CN(C(=O)CC2CC2C)c2ccncc2)cc1 (stereo not drawn) | MTNR1A | cAMP, agonist, luciferase | EC50 | 826 nM |
| Cc1n[nH]c(N)c1-c1ccccc1 | CSNK1A1 | binding, SPR | Kd | > 50000 nM |
| Cc1cc(N2CCCC2)ccc1NC(=O)COC(=O)c1cc(S(N)(=O)=O)ccc1O | CA9 | enzyme activity, inhibitor | IC50 | 746 nM |
| COc1ccc2c(c1)N(Cc1cc(=O)c(O)co1)CCO2 | MTNR1A | cAMP, agonist, luciferase | EC50 | 1.2 nM |
| OCc1cccc2ccncc12 | CSNK1A1 | binding, SPR | Kd | > 50000 nM |
| C[S+](CC[C@H](N)C(=O)O)C[C@H]1O[C@@H](n2cnc3c(N)ncnc32)[C@H](O)[C@@H]1O (stereo partly drawn) | tapT (Escherichia coli, UniProt Q47319, T182A) | binding, ITC | Kd | 469000 nM |
| N#Cc1ccccc1C#CCO | CSNK1A1 | binding, SPR | Kd | > 50000 nM |
| CC(NCC1(c2ccc(-c3cn(C)nn3)cc2)CCOCC1)C(=O)Nc1ccc(S(N)(=O)=O)cc1 (stereo not drawn) | CA9 | enzyme activity, inhibitor | IC50 | 100 nM |
| COc1cccc2c1CCN(C(=O)c1nc[nH]n1)C2 | MTNR1A | cAMP, agonist, luciferase | EC50 | 29.4 nM |
| Cn1cc(-c2ccc(Cn3c(C(=O)Nc4ccc(S(N)(=O)=O)cc4)cc4sccc43)cc2)nn1 | CA9 | enzyme activity, inhibitor | IC50 | 1.15 nM |
| Cc1cc(Oc2ncccc2CN2CCN(c3ccc(Br)cc3)CC2)ccc1-c1c(C)c(=O)[nH]c(=O)n1C | Alpha-1B adrenergic receptor (ADRA1B, Homo sapiens, UniProt P35368) | ligand displacement, radioligand | Ki | 3030 nM |
| COC(=O)c1cc(Cn2nc(Cl)c(OC)cc2=O)c(C)s1 | MTNR1A | cAMP, agonist, luciferase | EC50 | 25.6 nM |
| Cc1ccc(NC(=S)NCc2ccc(S(N)(=O)=O)cc2)cc1NC(=O)CN1CCCCC1 | CA9 | enzyme activity, inhibitor | IC50 | 127 nM |
| CCN1CCc2c(sc(NC(=O)c3ccc(OC)cc3OC)c2C(N)=O)C1 | CSNK1D | binding, SPR | Kd | > 50000 nM |

For quick reference, copied from above:
| SMILES | target | test | quantity | value |
| --- | --- | --- | --- | --- |
| CN(C)C(=O)c1ccc(NC(=O)c2cc(S(N)(=O)=O)ccc2N2CCOCC2)cc1 | CA9 | enzyme activity, inhibitor | IC50 | 84 nM |
| CC(NCC1(c2ccc(-c3cn(C)nn3)cc2)CCOCC1)C(=O)Nc1ccc(S(N)(=O)=O)cc1 (stereo not drawn) | CA9 | enzyme activity, inhibitor | IC50 | 100 nM |
| COc1cccc2c1CCN(C(=O)c1nc[nH]n1)C2 | MTNR1A | cAMP, agonist, luciferase | EC50 | 29.4 nM |
